Published values pooled from the literature.
Protocols differ between the studies behind these lines. Numbers after ± are the reported error.
Target: Metallo-beta-lactamase VIM-2 (VIM-2, Escherichia coli, UniProt Q5U7L7)
Mode: inhibitor

SMILES | effect on | method | setting | together with | measurement | value
CC(C)C1=CCC(C(=O)O)C(C(=O)O)C1 (stereo not shown) | enzyme activity | fluorescence | with preincubation |  | IC50 | 402 µM
NC(CNC(CNC(CC(=O)O)C(=O)O)C(=O)O)C(=O)O (stereo not shown) |  |  |  |  | Ki | 0.007 µM
O=C(O)CNCC(=O)O | enzyme activity | fluorescence |  |  | IC50 | > 200 µM
C[C@H](CS)C(=O)Nc1ccccc1-c1nnn(C)n1 | enzyme activity | fluorescence | with preincubation |  | IC50 | 1.82 µM
O=C(O)C(c1ccccc1)n1cnnn1 (stereo not shown) | enzyme activity | fluorescence | with preincubation |  | IC50 | 962 µM
O=C(O)c1cccc(CP(=O)(O)O)n1 | enzyme activity |  |  |  | Ki | 0.54 µM
C[C@H](CS)C(=O)Nc1ccccc1-c1nn[nH]n1 | enzyme activity | fluorescence | with preincubation |  | IC50 | 0.0355 µM
O=C(O)CN(CC(=O)O)CP(=O)(O)O | enzyme activity | fluorescence |  |  | IC50 | 0.68 µM
CC(C)Cn1nnc(-c2ccccc2NC(=O)[C@H](C)CS)n1 | enzyme activity | fluorescence | with preincubation |  | IC50 | 1.7 µM
CN(C)c1ccc2c(c1)C(=O)N(C(CS)C(N)=O)C2=O (stereo not shown) | enzyme activity |  | Km 8 µM | chromacef 25 µM | Ki | 0.41 ± 0.05 µM

Repeated from above:
SMILES | effect on | method | setting | together with | measurement | value
O=C(O)CNCC(=O)O | enzyme activity | fluorescence |  |  | IC50 | > 200 µM
